{"data": "Measured values pooled from the literature", "note": "Every numbered part comes from another study and shows a few of its results, in no order.", "sequence of UniProt P07949 (whole entry, unmodified, looked up)": "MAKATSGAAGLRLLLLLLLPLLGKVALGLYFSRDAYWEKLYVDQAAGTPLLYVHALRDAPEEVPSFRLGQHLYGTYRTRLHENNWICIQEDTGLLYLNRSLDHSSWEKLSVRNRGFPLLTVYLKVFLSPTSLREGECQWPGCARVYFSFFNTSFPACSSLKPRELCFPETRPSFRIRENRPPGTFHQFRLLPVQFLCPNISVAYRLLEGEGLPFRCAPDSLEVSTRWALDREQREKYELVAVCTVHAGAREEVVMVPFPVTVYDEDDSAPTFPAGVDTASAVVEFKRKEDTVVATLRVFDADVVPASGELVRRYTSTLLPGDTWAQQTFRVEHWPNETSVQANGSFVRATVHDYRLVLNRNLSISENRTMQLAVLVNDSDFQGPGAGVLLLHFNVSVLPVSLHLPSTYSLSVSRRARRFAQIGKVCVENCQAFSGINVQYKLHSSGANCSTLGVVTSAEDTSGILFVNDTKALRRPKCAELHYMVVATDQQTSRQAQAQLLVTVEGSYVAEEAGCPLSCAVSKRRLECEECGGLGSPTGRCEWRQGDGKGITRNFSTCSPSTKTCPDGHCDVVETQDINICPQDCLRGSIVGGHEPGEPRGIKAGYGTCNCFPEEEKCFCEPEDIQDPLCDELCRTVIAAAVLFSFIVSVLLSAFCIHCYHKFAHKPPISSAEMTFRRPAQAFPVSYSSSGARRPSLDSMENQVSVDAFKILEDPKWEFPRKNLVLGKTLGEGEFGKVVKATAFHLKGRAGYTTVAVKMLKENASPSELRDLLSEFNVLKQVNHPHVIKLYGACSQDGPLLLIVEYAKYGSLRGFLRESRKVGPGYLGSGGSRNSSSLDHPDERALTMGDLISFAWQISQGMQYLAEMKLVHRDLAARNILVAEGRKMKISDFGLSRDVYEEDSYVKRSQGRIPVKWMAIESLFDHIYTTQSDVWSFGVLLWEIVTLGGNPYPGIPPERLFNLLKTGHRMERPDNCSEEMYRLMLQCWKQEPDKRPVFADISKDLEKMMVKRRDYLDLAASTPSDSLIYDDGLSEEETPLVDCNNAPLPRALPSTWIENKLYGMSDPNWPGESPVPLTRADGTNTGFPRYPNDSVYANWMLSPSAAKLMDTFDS", "sequence of UniProt P00519 (whole entry, unmodified, looked up)": "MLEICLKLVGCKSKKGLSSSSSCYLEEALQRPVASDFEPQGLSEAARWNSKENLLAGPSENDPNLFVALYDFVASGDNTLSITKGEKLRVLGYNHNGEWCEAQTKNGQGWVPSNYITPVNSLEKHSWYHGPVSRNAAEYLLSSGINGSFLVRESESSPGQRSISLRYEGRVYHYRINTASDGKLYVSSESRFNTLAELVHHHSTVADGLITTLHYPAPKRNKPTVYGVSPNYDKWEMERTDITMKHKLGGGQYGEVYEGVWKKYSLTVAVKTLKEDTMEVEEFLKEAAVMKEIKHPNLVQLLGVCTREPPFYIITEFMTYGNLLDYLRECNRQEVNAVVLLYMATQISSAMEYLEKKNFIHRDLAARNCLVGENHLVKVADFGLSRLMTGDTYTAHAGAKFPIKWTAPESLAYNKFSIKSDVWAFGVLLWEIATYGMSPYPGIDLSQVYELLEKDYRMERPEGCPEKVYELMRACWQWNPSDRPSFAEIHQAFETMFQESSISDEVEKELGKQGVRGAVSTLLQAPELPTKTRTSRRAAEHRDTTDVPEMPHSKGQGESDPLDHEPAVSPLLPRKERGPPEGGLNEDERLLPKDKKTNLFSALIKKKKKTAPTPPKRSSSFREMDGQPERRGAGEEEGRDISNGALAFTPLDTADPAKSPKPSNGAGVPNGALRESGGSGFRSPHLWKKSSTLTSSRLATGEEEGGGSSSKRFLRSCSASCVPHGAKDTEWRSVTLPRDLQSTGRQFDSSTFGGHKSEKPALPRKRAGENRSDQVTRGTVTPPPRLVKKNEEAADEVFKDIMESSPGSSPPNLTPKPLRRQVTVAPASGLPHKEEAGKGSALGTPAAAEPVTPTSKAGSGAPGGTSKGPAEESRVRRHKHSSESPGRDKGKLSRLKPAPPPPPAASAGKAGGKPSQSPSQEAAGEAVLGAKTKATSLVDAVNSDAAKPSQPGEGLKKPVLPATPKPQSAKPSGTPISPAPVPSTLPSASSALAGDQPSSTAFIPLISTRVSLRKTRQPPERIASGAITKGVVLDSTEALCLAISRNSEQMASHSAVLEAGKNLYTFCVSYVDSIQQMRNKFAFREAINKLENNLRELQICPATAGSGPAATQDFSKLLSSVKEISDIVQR", "sequence of UniProt P51617 (whole entry, looked up)": "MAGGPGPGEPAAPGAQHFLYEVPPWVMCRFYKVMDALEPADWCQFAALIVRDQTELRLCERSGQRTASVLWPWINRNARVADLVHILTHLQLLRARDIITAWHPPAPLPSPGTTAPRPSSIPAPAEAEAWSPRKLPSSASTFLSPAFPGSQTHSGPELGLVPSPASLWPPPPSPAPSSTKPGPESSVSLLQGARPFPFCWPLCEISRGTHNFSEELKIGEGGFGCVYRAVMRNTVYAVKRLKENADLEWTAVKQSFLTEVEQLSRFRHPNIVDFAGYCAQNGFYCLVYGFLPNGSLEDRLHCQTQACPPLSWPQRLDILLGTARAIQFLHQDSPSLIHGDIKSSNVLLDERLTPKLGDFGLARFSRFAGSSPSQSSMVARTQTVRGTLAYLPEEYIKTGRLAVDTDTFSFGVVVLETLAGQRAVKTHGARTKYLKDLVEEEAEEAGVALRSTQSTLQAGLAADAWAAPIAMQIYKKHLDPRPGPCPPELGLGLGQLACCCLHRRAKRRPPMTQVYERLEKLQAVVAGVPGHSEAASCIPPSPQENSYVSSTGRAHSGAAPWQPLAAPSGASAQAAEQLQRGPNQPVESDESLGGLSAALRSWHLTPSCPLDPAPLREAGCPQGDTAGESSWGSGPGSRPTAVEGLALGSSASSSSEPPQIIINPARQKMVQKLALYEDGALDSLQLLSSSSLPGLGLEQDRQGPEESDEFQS", "sequence of UniProt Q9NRP7 (whole entry, looked up)": "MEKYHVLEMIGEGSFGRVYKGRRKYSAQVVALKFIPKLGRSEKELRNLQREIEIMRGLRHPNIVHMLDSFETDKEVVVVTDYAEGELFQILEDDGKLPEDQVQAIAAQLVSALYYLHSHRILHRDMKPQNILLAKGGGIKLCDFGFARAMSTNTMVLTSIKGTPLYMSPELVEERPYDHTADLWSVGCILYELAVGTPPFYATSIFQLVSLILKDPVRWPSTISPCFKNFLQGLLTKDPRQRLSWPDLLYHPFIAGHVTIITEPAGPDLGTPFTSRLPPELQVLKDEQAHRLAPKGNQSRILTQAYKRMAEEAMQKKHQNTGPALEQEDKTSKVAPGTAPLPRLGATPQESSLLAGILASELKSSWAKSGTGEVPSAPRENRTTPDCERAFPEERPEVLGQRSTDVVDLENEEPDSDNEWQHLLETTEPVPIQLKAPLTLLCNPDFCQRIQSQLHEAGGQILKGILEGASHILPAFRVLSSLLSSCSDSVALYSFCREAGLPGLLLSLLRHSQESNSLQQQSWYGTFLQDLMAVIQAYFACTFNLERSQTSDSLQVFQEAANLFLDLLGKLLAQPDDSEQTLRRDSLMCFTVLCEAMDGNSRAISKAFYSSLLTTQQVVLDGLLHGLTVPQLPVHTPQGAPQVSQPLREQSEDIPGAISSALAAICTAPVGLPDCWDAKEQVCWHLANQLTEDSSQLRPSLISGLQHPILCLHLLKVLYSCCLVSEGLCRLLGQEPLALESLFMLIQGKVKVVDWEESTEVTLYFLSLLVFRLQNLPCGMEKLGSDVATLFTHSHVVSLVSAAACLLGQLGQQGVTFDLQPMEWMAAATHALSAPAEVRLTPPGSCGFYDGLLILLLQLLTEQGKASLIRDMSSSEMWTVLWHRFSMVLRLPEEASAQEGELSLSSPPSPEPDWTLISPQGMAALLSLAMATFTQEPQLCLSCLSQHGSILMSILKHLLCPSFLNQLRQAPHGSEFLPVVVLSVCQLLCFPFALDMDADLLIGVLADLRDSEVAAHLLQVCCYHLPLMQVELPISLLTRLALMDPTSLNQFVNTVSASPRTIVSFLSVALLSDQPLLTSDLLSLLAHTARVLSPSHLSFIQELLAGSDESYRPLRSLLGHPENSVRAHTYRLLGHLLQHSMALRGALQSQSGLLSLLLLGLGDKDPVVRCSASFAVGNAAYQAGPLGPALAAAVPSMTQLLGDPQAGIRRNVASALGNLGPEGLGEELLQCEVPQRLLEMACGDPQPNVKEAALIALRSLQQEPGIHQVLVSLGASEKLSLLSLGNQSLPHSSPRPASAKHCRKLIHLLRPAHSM", "sequence of UniProt Q00526 (whole entry, looked up)": "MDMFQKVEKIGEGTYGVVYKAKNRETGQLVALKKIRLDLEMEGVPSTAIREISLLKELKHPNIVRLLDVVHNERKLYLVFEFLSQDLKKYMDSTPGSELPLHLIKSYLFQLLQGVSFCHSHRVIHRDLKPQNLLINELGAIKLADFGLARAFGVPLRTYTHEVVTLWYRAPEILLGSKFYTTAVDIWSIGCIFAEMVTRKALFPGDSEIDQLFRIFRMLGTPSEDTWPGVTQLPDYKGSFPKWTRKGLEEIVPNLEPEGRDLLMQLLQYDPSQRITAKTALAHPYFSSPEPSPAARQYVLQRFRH"}
{"data": "Series 1", "target": "Ribosomal protein S6 kinase beta-1 (RPS6KB1, Homo sapiens, UniProt P23443)", "read-out": "enzyme activity", "mode": "inhibitor", "tested at": "0.5 µM", "reference": "control", "sequence of UniProt P23443 (whole entry, looked up)": "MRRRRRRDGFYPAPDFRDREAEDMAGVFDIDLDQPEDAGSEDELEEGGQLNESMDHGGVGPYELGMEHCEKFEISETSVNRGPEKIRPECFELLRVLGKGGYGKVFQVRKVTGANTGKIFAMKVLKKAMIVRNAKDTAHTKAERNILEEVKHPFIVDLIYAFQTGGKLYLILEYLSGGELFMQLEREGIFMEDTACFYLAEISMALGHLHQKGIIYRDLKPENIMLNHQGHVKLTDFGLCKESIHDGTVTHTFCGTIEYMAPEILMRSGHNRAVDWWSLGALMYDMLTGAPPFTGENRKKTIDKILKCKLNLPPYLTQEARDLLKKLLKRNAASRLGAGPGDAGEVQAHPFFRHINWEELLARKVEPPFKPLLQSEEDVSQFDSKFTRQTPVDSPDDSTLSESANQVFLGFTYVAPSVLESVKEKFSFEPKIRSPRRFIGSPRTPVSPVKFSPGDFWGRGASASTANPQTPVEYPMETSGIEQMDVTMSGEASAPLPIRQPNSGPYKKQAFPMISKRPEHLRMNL"}
{"SMILES": "O=C(Nc1cccc(Nc2nccc(Nc3cccc(C(F)(F)F)c3)n2)c1)C1CC1", "remaining activity [%]": 98}
{"SMILES": "Cc1cc2ncc(-c3ccccc3)nc2cc1C", "remaining activity [%]": 88.2}
{"SMILES": "N#C/C(=C\\c1ccc(O)c(O)c1)C(=O)NCc1ccccc1", "remaining activity [%]": 92.8}
{"SMILES": "COc1cc2c(cc1OC)-c1[nH]nc(Nc3cccc(F)c3)c1C2", "remaining activity [%]": 99.1}
{"SMILES": "Cc1nc2cc3nc(-c4cccs4)cnc3cc2n1C", "remaining activity [%]": 95}
{"SMILES": "CN(C)C[C@H]1CCn2c(c(C3=C(c4cn(C)c5ccccc45)C(=O)NC3=O)c3ccccc32)C1", "remaining activity [%]": 20}
{"SMILES": "C[C@@H]1CCN(C(=O)CC#N)C[C@@H]1N(C)c1ncnc2[nH]ccc12", "remaining activity [%]": 103}
{"SMILES": "Nc1cccc(-c2cc3c(Oc4cccc(O)c4)ncnc3[nH]2)c1", "remaining activity [%]": 95.3}
{"SMILES": "O=c1cc(-c2cccc3c2Sc2ccccc2S3)oc(N2CCOCC2)c1", "remaining activity [%]": 91.5}
{"SMILES": "COc1cc2ncnc(Nc3cccc(Cl)c3)c2cc1OC", "remaining activity [%]": 88.5}
{"SMILES": "c1ccc(-c2[nH]ncc2-c2ccnc3ccccc23)nc1", "remaining activity [%]": 106}
{"SMILES": "COc1cc2ncnc(Nc3ccc(O)c(Br)c3)c2cc1OC", "remaining activity [%]": 82.1}
{"SMILES": "O=C1C(Cl)=C(N2C(=O)CCC2=O)C(=O)c2ccccc21", "remaining activity [%]": 101}
{"SMILES": "CCN(CC)C(=O)c1ccc(Nc2nc(OCC3CCCCC3)c3[nH]cnc3n2)cc1", "remaining activity [%]": 89.5}
{"SMILES": "N#Cc1c(NC(=O)c2cccc3ccccc23)sc2c1CCCC2", "remaining activity [%]": 105}
{"SMILES": "c1ccc(-c2cnc(Nc3ccc(OCCN4CCCC4)cc3)s2)cc1", "remaining activity [%]": 92.3}
{"SMILES": "Ic1cccc(CSc2nnc(-c3ccncc3)o2)c1", "remaining activity [%]": 100}
{"SMILES": "Cc1cn(-c2cc(NC(=O)c3ccc(C)c(Nc4nccc(-c5cccnc5)n4)c3)cc(C(F)(F)F)c2)cn1", "remaining activity [%]": 98}
{"SMILES": "CCN(CC)CCNC(=O)c1c(C)[nH]c(/C=C2\\C(=O)Nc3ccc(Cl)cc32)c1C", "remaining activity [%]": 41.7}
{"SMILES": "O=C(NC(NC(=S)Nc1ccc(F)c([N+](=O)[O-])c1)C(Cl)(Cl)Cl)C(c1ccccc1)c1ccccc1 (stereo not shown)", "remaining activity [%]": 91.9}
{"SMILES": "CCN(CC)CCNC(=O)c1c(C)[nH]c(/C=C2\\C(=O)Nc3ccc(F)cc32)c1C", "remaining activity [%]": 42.3}
{"SMILES": "CCOc1nc(NC(=O)Cc2cc(OC)ccc2OC)cc(N)c1C#N", "remaining activity [%]": 104}
{"SMILES": "Cn1nc2c3c(cccc31)C(=O)c1ccccc1-2", "remaining activity [%]": 96.3}
{"data": "Series 2", "SMILES": "Cc1ccc(NC(=O)c2ccnc(C(F)(F)F)c2)cc1-c1cc(OCCO)nc(N2CCOCC2)c1", "method": "competitive binding panel", "tested at": "1 µM", "reference": "vehicle"}
{"target": "Mitogen-activated protein kinase 4 (MAPK4, Homo sapiens, UniProt P31152)", "measured": "ERK4", "remaining binding [%]": 96}
{"target": "Serine/threonine-protein kinase 26 (STK26, Homo sapiens, UniProt Q9P289)", "measured": "MST4", "remaining binding [%]": 85}
{"target": "Serine/threonine-protein kinase BRSK1 (BRSK1, Homo sapiens, UniProt Q8TDC3)", "remaining binding [%]": 93}
{"target": "RAC-alpha serine/threonine-protein kinase (AKT1, Homo sapiens, UniProt P31749)", "remaining binding [%]": 99}
{"target": "Receptor tyrosine-protein kinase erbB-2 (ERBB2, Homo sapiens, UniProt P04626)", "remaining binding [%]": 72}
{"target": "Interleukin-1 receptor-associated kinase 1 (IRAK1, Homo sapiens, UniProt P51617)", "remaining binding [%]": 100}
{"target": "AP2-associated protein kinase 1 (AAK1, Homo sapiens, UniProt Q2M2I8)", "remaining binding [%]": 78}
{"target": "Tyrosine-protein kinase ABL1 (ABL1, Homo sapiens, UniProt P00519, Y253F)", "remaining binding [%]": 100}
{"target": "Serine/threonine-protein kinase DCLK1 (DCLK1, Homo sapiens, UniProt O15075)", "measured": "DCAMKL1", "remaining binding [%]": 96}
{"target": "STE20/SPS1-related proline-alanine-rich protein kinase (STK39, Homo sapiens, UniProt Q9UEW8)", "remaining binding [%]": 97}
{"target": "Myotonin-protein kinase (DMPK, Homo sapiens, UniProt Q09013)", "remaining binding [%]": 100}
{"target": "Casein kinase I isoform gamma-2 (CSNK1G2, Homo sapiens, UniProt P78368)", "remaining binding [%]": 94}
{"data": "Series 3", "Structure (SMILES)": "CO[C@@H]1[C@H](N(C)C(=O)c2ccccc2)C[C@H]2O[C@]1(C)n1c3ccccc3c3c4c(c5c6ccccc6n2c5c31)C(=O)NC4", "mode": "inhibitor", "tested at": "1 µM"}
{"target": "Tyrosine-protein kinase JAK1, JH1 kinase domain (JAK1, Homo sapiens, UniProt P23458)", "inhibition": "13%"}
{"target": "Serine/threonine-protein kinase 38 (STK38, Homo sapiens, UniProt Q15208)", "read-out": "enzyme activity", "inhibition": "21%"}
{"target": "Serine/threonine-protein kinase Nek3 (NEK3, Homo sapiens, UniProt P51956)", "read-out": "enzyme activity", "inhibition": "18%"}
{"target": "G protein-coupled receptor kinase 4 (GRK4, Homo sapiens, UniProt P32298)", "read-out": "enzyme activity", "inhibition": "95%"}
{"target": "Tyrosine-protein kinase Lck (LCK, Homo sapiens, UniProt P06239)", "read-out": "enzyme activity", "inhibition": "89%"}
{"target": "Myosin-IIIa (MYO3A, Homo sapiens, UniProt Q8NEV4)", "read-out": "enzyme activity", "inhibition": "7%"}
{"target": "Phosphatidylinositol 4,5-bisphosphate 3-kinase catalytic subunit alpha isoform (PIK3CA, Homo sapiens, UniProt P42336, E542K)", "read-out": "enzyme activity", "inhibition": "32%"}
{"target": "STE20/SPS1-related proline-alanine-rich protein kinase (STK39, Homo sapiens, UniProt Q9UEW8)", "read-out": "enzyme activity", "inhibition": "0%"}
{"target": "Mast/stem cell growth factor receptor Kit (KIT, Homo sapiens, UniProt P10721)", "read-out": "enzyme activity", "inhibition": "92%"}
{"target": "Tyrosine-protein kinase ABL1, non-phosphorylated (ABL1, Homo sapiens, UniProt P00519)", "read-out": "enzyme activity", "inhibition": "12%"}
{"target": "Proto-oncogene tyrosine-protein kinase receptor Ret (RET, Homo sapiens, UniProt P07949, V804L)", "read-out": "enzyme activity", "inhibition": "99%"}
{"target": "Insulin receptor-related protein (INSRR, Homo sapiens, UniProt P14616)", "read-out": "enzyme activity", "inhibition": "0%"}
{"target": "Cyclin-dependent kinase 3 (CDK3, Homo sapiens, UniProt Q00526)", "read-out": "enzyme activity", "inhibition": "0%"}
{"target": "Serine/threonine-protein kinase 36 (STK36, Homo sapiens, UniProt Q9NRP7)", "read-out": "enzyme activity", "inhibition": "0%"}
{"target": "Uncharacterized serine/threonine-protein kinase SBK3 (SBK3, Homo sapiens, UniProt P0C264)", "read-out": "enzyme activity", "inhibition": "0%"}
{"data": "Series 4", "SMILES": "C[C@H](NC(=O)c1cnc2n1[C@](C)(Cc1ccc(C#N)cc1)C(=O)N2c1cc(Cl)c(F)c(Cl)c1)C(=O)NC1(c2ccccn2)CC1", "read-out": "cell-free assay", "method": "competition with immobilised ligand", "tested at": "1 µM"}
{"target": "Cyclin-dependent kinase 16 (CDK16, Homo sapiens, UniProt Q00536)", "remaining binding": "100%"}
{"target": "Proto-oncogene tyrosine-protein kinase receptor Ret (RET, Homo sapiens, UniProt P07949, V804L)", "remaining binding": "100%"}
{"target": "Serine/threonine-protein kinase pim-2 (PIM2, Homo sapiens, UniProt Q9P1W9)", "remaining binding": "100%"}
{"target": "Serine/threonine-protein kinase RIO2 (RIOK2, Homo sapiens, UniProt Q9BVS4)", "remaining binding": "100%"}
{"target": "Mitogen-activated protein kinase 7 (MAPK7, Homo sapiens, UniProt Q13164)", "remaining binding": "100%"}
{"target": "3-phosphoinositide-dependent protein kinase 1 (PDPK1, Homo sapiens, UniProt O15530)", "remaining binding": "100%"}
{"target": "Ephrin type-B receptor 4 (EPHB4, Homo sapiens, UniProt P54760)", "remaining binding": "100%"}
{"target": "Proto-oncogene tyrosine-protein kinase receptor Ret (RET, Homo sapiens, UniProt P07949)", "remaining binding": "100%"}
{"target": "Interleukin-1 receptor-associated kinase 1 (IRAK1, Homo sapiens, UniProt P51617)", "remaining binding": "100%"}
{"target": "TGF-beta receptor type-2 (TGFBR2, Homo sapiens, UniProt P37173)", "remaining binding": "100%"}
{"target": "Mitogen-activated protein kinase 14 (MAPK14, Homo sapiens, UniProt Q16539)", "remaining binding": "100%"}
{"target": "RAC-gamma serine/threonine-protein kinase (AKT3, Homo sapiens, UniProt Q9Y243)", "remaining binding": "60%"}
{"target": "High affinity nerve growth factor receptor (NTRK1, Homo sapiens, UniProt P04629)", "remaining binding": "98%"}
{"target": "Mitogen-activated protein kinase 9 (MAPK9, Homo sapiens, UniProt P45984)", "remaining binding": "92%"}
{"target": "Serine/threonine-protein kinase WNK2 (WNK2, Homo sapiens, UniProt Q9Y3S1)", "remaining binding": "100%"}
{"target": "Serine/threonine-protein kinase TBK1 (TBK1, Homo sapiens, UniProt Q9UHD2)", "remaining binding": "97%"}
{"target": "Serine/threonine-protein kinase OSR1 (OXSR1, Homo sapiens, UniProt O95747)", "remaining binding": "94%"}
{"target": "Ephrin type-A receptor 6 (EPHA6, Homo sapiens, UniProt Q9UF33)", "remaining binding": "100%"}
{"target": "Activin receptor type-1 (ACVR1, Homo sapiens, UniProt Q04771)", "remaining binding": "97%"}
{"target": "5'-AMP-activated protein kinase catalytic subunit alpha-2 (PRKAA2, Homo sapiens, UniProt P54646)", "remaining binding": "100%"}
{"note": "Excerpt of the above (series 3):"}
{"target": "Tyrosine-protein kinase JAK1, JH1 kinase domain (JAK1, Homo sapiens, UniProt P23458)", "inhibition": "13%"}
{"target": "Phosphatidylinositol 4,5-bisphosphate 3-kinase catalytic subunit alpha isoform (PIK3CA, Homo sapiens, UniProt P42336, E542K)", "read-out": "enzyme activity", "inhibition": "32%"}
{"target": "G protein-coupled receptor kinase 4 (GRK4, Homo sapiens, UniProt P32298)", "read-out": "enzyme activity", "inhibition": "95%"}
{"target": "Serine/threonine-protein kinase 38 (STK38, Homo sapiens, UniProt Q15208)", "read-out": "enzyme activity", "inhibition": "21%"}
{"target": "Uncharacterized serine/threonine-protein kinase SBK3 (SBK3, Homo sapiens, UniProt P0C264)", "read-out": "enzyme activity", "inhibition": "0%"}
{"target": "Tyrosine-protein kinase Lck (LCK, Homo sapiens, UniProt P06239)", "read-out": "enzyme activity", "inhibition": "89%"}
{"target": "Tyrosine-protein kinase ABL1, non-phosphorylated (ABL1, Homo sapiens, UniProt P00519)", "read-out": "enzyme activity", "inhibition": "12%"}
{"target": "Insulin receptor-related protein (INSRR, Homo sapiens, UniProt P14616)", "read-out": "enzyme activity", "inhibition": "0%"}
{"target": "Myosin-IIIa (MYO3A, Homo sapiens, UniProt Q8NEV4)", "read-out": "enzyme activity", "inhibition": "7%"}
{"target": "Mast/stem cell growth factor receptor Kit (KIT, Homo sapiens, UniProt P10721)", "read-out": "enzyme activity", "inhibition": "92%"}
